# Published values pooled from the literature.
# Organism: Pseudomonas aeruginosa
SMILES,test,test system,conditions,MIC
CC[C@H](C)[C@@H]1NC(=O)CNC(=O)[C@H](CCCCN)NC(=O)[C@H](C)NC(=O)[C@H](CCC(=O)O)NC(=O)[C@H](Cc2ccccc2)NC(=O)[C@H](CO)NC(=O)[C@H](CC(C)C)NC(=O)[C@H](C(C)C)NC(=O)[C@H](CC(=O)O)NC(=O)[C@@H](NC(=O)[C@@H](NC(=O)[C@@H](N)C(C)C)[C@@H](C)O)CSSC[C@@H]2NC(=O)[C@H](CO)NC(=O)CNC(=O)CNC(=O)[C@H](CCCCN)NC(=O)[C@H](CCCCN)NC(=O)[C@H](CCCNC(=N)N)NC(=O)[C@H](CC(C)C)NC(=O)[C@H](C)NC(=O)[C@H]([C@@H](C)CC)NC(=O)[C@H](CSSC[C@@H](C(=O)N[C@@H](CCCNC(=N)N)C(=O)N[C@@H](CC(N)=O)C(=O)O)NC(=O)[C@H](C(C)C)NC(=O)[C@H](C)NC(=O)[C@H](C(C)C)NC(=O)CNC(=O)[C@H](CC(N)=O)NC(=O)[C@H](CCC(N)=O)NC2=O)NC(=O)[C@H](Cc2c[nH]cn2)NC(=O)[C@H](CC(C)C)NC(=O)[C@H](C)NC(=O)[C@H](C)NC(=O)[C@H](C)NC(=O)[C@H](CO)NC(=O)[C@H](Cc2c[nH]cn2)NC(=O)[C@H](CC(N)=O)NC(=O)[C@H](C(C)C)NC(=O)[C@H](C)NC1=O,broth microdilution,KCTC 1637,"16 h, 37 °C",> 100 µM
CC[C@H](C)[C@H](NC(=O)[C@H](CC(C)C)NC(=O)[C@H](CO)NC(=O)[C@H](CC(C)C)NC(=O)[C@@H](N)CCSC)C(=O)N[C@@H](Cc1ccccc1)C(=O)N[C@@H](CC(C)C)C(=O)N[C@@H](Cc1c[nH]cn1)C(=O)N[C@@H](CCCNC(=N)N)C(=O)N[C@@H](CC(C)C)C(=O)N[C@@H](CCCCN)C(=O)N[C@@H](CO)C(=O)N[C@@H](CCSC)C(=O)N[C@@H](CCCNC(=N)N)C(=O)N[C@@H](CCCCN)C(=O)N[C@@H](CCCNC(=N)N)C(=O)N[C@@H](CC(C)C)C(=O)N[C@@H](CC(=O)O)C(=O)N[C@@H](CCCNC(=N)N)C(=O)N[C@@H](CCCCN)C(=O)N[C@@H](CC(C)C)C(=O)N[C@@H](CCCNC(=N)N)C(=O)N[C@@H](CC(C)C)C(=O)N[C@@H](Cc1c[nH]c2ccccc12)C(=O)N[C@@H](Cc1c[nH]cn1)C(=O)N[C@@H](CCCNC(=N)N)C(=O)N[C@@H](CCCCN)C(=O)N[C@@H](CC(N)=O)C(=O)N[C@@H](Cc1ccc(O)cc1)C(=O)N1CCC[C@H]1C(=O)O,,ATCC 27853,together with: 1 mM CaCl2,40 µg/mL
CC[C@H](C)[C@H](NC(=O)[C@H](Cc1c[nH]cn1)NC(=O)[C@H](CCCCNC(=O)[C@@H](NC(=O)[C@H](CCCCN)NC(=O)CSC[C@H](NC(=O)[C@H](Cc1ccccc1)NC(=O)[C@H](CCCCNC(=O)[C@H](CC(C)C)NC(=O)[C@H](CCCCN)NC(=O)[C@H](CCCCN)NC(=O)C[C@@H]1O[C@@H](C)[C@@H](O)[C@@H](O)[C@@H]1O)NC(=O)[C@H](CC(C)C)NC(=O)[C@H](CCCCN)NC(=O)[C@H](CCCCN)NC(=O)c1ccc(O[C@@H]2O[C@H](CO)[C@H](O)[C@H](O)[C@H]2O)cc1)C(N)=O)[C@@H](C)CC)NC(=O)[C@@H](NC(=O)[C@H](CCCCN)NC(=O)CSC[C@H](NC(=O)[C@H](Cc1ccccc1)NC(=O)[C@H](CCCCNC(=O)[C@H](CC(C)C)NC(=O)[C@H](CCCCN)NC(=O)[C@H](CCCCN)NC(=O)C[C@@H]1O[C@@H](C)[C@@H](O)[C@@H](O)[C@@H]1O)NC(=O)[C@H](CC(C)C)NC(=O)[C@H](CCCCN)NC(=O)[C@H](CCCCN)NC(=O)c1ccc(O[C@@H]2O[C@H](CO)[C@H](O)[C@H](O)[C@H]2O)cc1)C(N)=O)[C@@H](C)CC)C(N)=O,,"PAO1, LB medium",,> 64 µM
CC[C@H](C)[C@H](NC(=O)[C@H](CCCNC(=N)N)NC(=O)[C@@H]1CCCN1C(=O)[C@H](CCCNC(=N)N)NC(=O)[C@H](Cc1ccccc1)NC(=O)[C@H](Cc1c[nH]cn1)NC(=O)[C@H](CCCNC(=N)N)NC(=O)[C@H](CC(C)C)NC(=O)[C@H](CCCCN)NC(=O)CNC(=O)[C@H](CC(C)C)NC(=O)[C@H](Cc1ccccc1)NC(=O)[C@H](CCCNC(=N)N)NC(=O)CNC(=O)[C@H](Cc1ccccc1)NC(=O)[C@H](CCCNC(=N)N)NC(=O)CNC(=O)[C@H](CCCNC(=N)N)NC(=O)[C@H](CCC(N)=O)NC(=O)[C@@H](NC(=O)[C@@H](N)CC(C)C)[C@@H](C)CC)C(=O)N[C@@H](CCCCN)C(=O)N[C@@H](Cc1ccccc1)C(=O)N[C@@H](CCCCN)C(=O)NCC(=O)N[C@@H](CCCCN)C(=O)N[C@@H](C)C(=O)NCC(=O)N[C@@H](Cc1c[nH]c2ccccc12)C(=O)N[C@H](C(=O)N[C@H](C(=O)NCC(=O)O)C(C)C)[C@@H](C)O,broth microdilution,ATCC 27853,"16 to 20 h, 37 °C",> 25 µM
CC(C)[C@H](NC(=O)[C@H]1NC(=O)[C@H](CO)NC(=O)[C@H](CC(N)=O)NC(=O)[C@@H](N)Cc2c[nH]c3cc(ccc23)C1C(N)=O)C(=O)N[C@H]1Cc2cn(cn2)C(c2ccc(O)cc2)[C@@H](C(=O)N[C@@H](CCCNC(=N)N)C(=O)N[C@@H](Cc2ccccc2)C(=O)O)NC(=O)[C@H](CO)NC1=O (stereo partly drawn),,PA14,,16 µg/mL
CC(C)C[C@@H]1NC(=O)[C@H](CC(C)C)NC(=O)[C@H](CCCCN)NC(=O)CSC[C@@H]2NC(=O)[C@H](CC(C)C)NC(=O)[C@H](CCCCN)NC(=O)[C@H](CCCCNC1=O)NC(=O)[C@H](CC(C)C)NC(=O)[C@H](CC(C)C)NC(=O)[C@H](CCCCN)NC(=O)CSC[C@@H](C(N)=O)NC(=O)[C@H](CC(C)C)NC(=O)[C@H](CCCCN)NC(=O)[C@H](CCCCN)NC2=O,,PAO1,18 h,> 256 µg/mL
CC[C@@H](C)[C@@H](NC(=O)[C@@H](C)NC(=O)[C@@H](CCCCN)NC(=O)[C@@H](CC(C)C)NC(=O)[C@@H](C)NC(=O)[C@H](NC(=O)[C@@H](Cc1c[nH]cn1)NC(=O)[C@@H](CC(C)C)NC(=O)[C@H](NC(=O)[C@H](NC(=O)[C@@H](CCCCN)NC(=O)[C@@H](CCCCN)NC(=O)[C@@H](C)NC(=O)[C@@H](CO)NC(=O)[C@@H](CCCCN)NC(=O)[C@@H](Cc1ccccc1)NC(=O)[C@H](NC(=O)[C@@H](CCCCN)NC(=O)[C@@H](CC(C)C)NC(=O)[C@@H](Cc1ccccc1)NC(=O)[C@@H](CO)NC(=O)[C@@H](CCCCN)NC(=O)[C@@H](Cc1c[nH]c2ccccc12)NC(=O)[C@@H](CCCCN)NC(C)=O)[C@H](C)O)[C@H](C)O)C(C)C)[C@H](C)O)C(=O)N[C@H](CO)C(=O)N[C@H](CO)C(N)=O,broth microdilution,M2,"24 h, 37 °C",2.6 µM
CCCCCCCCCCCC(=O)NCCCC[C@H](N)C(=O)N[C@@H](CCCNC(=N)N)C(=O)N[C@@H](CCCNC(=N)N)C(=O)N[C@@H](CCCNC(=N)N)C(=O)N[C@@H](CCCNC(=N)N)C(=O)N[C@@H](CCCNC(=N)N)C(=O)O,broth microdilution,PAO1,37 °C,> 139 µg/mL
C[C@H]1COc2c(N3CCN(C)CC3)c(F)cc3c(=O)c(C(=O)N[C@@H](CCCNC(=N)N)C(=O)N[C@@H](Cc4ccc(-c5ccccc5)cc4)C(=O)N[C@@H](CCCNC(=N)N)C(=O)N[C@@H](Cc4ccc(-c5ccccc5)cc4)C(=O)N[C@@H](CCCNC(=N)N)C(N)=O)cn1c23,broth microdilution,ATCC 3197,"18 h, 37 °C",20 µM
CC(C)C[C@H](NC(=O)[C@H](CC(C)C)NC(=O)[C@H](CCCCN)NC(=O)[C@@H]1CCCN1C(=O)[C@H](CC(C)C)NC(=O)[C@H](CC(C)C)NC(=O)[C@H](CCCCN)NC(=O)[C@H](CC(C)C)NC(=O)[C@H](CC(C)C)NC(=O)[C@H](CO)NC(=O)CNC(=O)[C@H](CC(C)C)NC(=O)[C@@H](N)CC(C)C)C(N)=O,broth microdilution,,,> 100 µM
CC(C)C[C@H](NC(=O)[C@@H]1CSCC(=O)N[C@@H](CCCCN)C(=O)N[C@@H](CC(C)C)C(=O)N[C@@H](CC(C)C)C(=O)NCCCC[C@@H]2NC(=O)[C@H](CC(C)C)NC(=O)[C@H](CC(C)C)NC(=O)[C@H](CCCCN)NC(=O)CSC[C@H](NC(=O)[C@H](CC(C)C)NC(=O)[C@H](CC(C)C)NC(=O)[C@H](CCCCN)NC2=O)C(=O)N[C@@H](CCCCN)C(=O)N[C@@H](CCCCN)C(=O)N[C@@H](CCCCN)C(=O)N1)C(N)=O,,PAO1,18 h,256 µg/mL
CCCCCCCC[C@H]1NC(=O)[C@H](CCN)NC(=O)[C@@H](NC(=O)[C@H](CCN)NC(=O)[C@@H](NC(=O)[C@H](CCN)NC(=O)c2ccc(-c3ccccc3)cc2)[C@@H](C)O)CCNC(=O)[C@H]([C@@H](C)O)NC(=O)[C@H](CCN)NC(=O)[C@H](CCN)NC(=O)[C@H](CC(C)C)NC1=O,,"FADDI-PA070, CaMHB","18 h, 37 °C",2 µg/mL

# Some of these lines once more:
SMILES,test,test system,conditions,MIC
CC[C@H](C)[C@H](NC(=O)[C@H](CCCNC(=N)N)NC(=O)[C@@H]1CCCN1C(=O)[C@H](CCCNC(=N)N)NC(=O)[C@H](Cc1ccccc1)NC(=O)[C@H](Cc1c[nH]cn1)NC(=O)[C@H](CCCNC(=N)N)NC(=O)[C@H](CC(C)C)NC(=O)[C@H](CCCCN)NC(=O)CNC(=O)[C@H](CC(C)C)NC(=O)[C@H](Cc1ccccc1)NC(=O)[C@H](CCCNC(=N)N)NC(=O)CNC(=O)[C@H](Cc1ccccc1)NC(=O)[C@H](CCCNC(=N)N)NC(=O)CNC(=O)[C@H](CCCNC(=N)N)NC(=O)[C@H](CCC(N)=O)NC(=O)[C@@H](NC(=O)[C@@H](N)CC(C)C)[C@@H](C)CC)C(=O)N[C@@H](CCCCN)C(=O)N[C@@H](Cc1ccccc1)C(=O)N[C@@H](CCCCN)C(=O)NCC(=O)N[C@@H](CCCCN)C(=O)N[C@@H](C)C(=O)NCC(=O)N[C@@H](Cc1c[nH]c2ccccc12)C(=O)N[C@H](C(=O)N[C@H](C(=O)NCC(=O)O)C(C)C)[C@@H](C)O,broth microdilution,ATCC 27853,"16 to 20 h, 37 °C",> 25 µM
CC(C)[C@H](NC(=O)[C@H]1NC(=O)[C@H](CO)NC(=O)[C@H](CC(N)=O)NC(=O)[C@@H](N)Cc2c[nH]c3cc(ccc23)C1C(N)=O)C(=O)N[C@H]1Cc2cn(cn2)C(c2ccc(O)cc2)[C@@H](C(=O)N[C@@H](CCCNC(=N)N)C(=O)N[C@@H](Cc2ccccc2)C(=O)O)NC(=O)[C@H](CO)NC1=O (stereo partly drawn),,PA14,,16 µg/mL
